Published values of several laboratories.
Each line is one published result; not all experiments were run side by side. Several values in a cell are separate wells, animals, samples, runs or records. ± gives the spread as reported.
ALB: Albumin (ALB, Homo sapiens, UniProt P02768)
ABCB1: ATP-dependent translocase ABCB1 (ABCB1, Homo sapiens, UniProt P08183)
UniProt P20813, sequence (whole entry, looked up): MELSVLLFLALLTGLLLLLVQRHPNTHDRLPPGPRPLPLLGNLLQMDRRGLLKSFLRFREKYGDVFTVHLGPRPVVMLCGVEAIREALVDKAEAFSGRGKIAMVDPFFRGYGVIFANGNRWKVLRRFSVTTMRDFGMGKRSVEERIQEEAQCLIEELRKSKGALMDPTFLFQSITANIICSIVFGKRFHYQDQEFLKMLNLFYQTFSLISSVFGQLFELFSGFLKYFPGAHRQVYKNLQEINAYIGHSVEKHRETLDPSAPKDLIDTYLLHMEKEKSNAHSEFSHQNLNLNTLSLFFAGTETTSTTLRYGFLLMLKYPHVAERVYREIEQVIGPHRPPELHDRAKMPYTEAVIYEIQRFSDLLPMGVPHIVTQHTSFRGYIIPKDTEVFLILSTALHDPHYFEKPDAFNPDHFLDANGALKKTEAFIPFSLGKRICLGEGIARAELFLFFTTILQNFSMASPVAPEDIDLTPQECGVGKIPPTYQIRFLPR
UniProt P08183, sequence (whole entry, looked up): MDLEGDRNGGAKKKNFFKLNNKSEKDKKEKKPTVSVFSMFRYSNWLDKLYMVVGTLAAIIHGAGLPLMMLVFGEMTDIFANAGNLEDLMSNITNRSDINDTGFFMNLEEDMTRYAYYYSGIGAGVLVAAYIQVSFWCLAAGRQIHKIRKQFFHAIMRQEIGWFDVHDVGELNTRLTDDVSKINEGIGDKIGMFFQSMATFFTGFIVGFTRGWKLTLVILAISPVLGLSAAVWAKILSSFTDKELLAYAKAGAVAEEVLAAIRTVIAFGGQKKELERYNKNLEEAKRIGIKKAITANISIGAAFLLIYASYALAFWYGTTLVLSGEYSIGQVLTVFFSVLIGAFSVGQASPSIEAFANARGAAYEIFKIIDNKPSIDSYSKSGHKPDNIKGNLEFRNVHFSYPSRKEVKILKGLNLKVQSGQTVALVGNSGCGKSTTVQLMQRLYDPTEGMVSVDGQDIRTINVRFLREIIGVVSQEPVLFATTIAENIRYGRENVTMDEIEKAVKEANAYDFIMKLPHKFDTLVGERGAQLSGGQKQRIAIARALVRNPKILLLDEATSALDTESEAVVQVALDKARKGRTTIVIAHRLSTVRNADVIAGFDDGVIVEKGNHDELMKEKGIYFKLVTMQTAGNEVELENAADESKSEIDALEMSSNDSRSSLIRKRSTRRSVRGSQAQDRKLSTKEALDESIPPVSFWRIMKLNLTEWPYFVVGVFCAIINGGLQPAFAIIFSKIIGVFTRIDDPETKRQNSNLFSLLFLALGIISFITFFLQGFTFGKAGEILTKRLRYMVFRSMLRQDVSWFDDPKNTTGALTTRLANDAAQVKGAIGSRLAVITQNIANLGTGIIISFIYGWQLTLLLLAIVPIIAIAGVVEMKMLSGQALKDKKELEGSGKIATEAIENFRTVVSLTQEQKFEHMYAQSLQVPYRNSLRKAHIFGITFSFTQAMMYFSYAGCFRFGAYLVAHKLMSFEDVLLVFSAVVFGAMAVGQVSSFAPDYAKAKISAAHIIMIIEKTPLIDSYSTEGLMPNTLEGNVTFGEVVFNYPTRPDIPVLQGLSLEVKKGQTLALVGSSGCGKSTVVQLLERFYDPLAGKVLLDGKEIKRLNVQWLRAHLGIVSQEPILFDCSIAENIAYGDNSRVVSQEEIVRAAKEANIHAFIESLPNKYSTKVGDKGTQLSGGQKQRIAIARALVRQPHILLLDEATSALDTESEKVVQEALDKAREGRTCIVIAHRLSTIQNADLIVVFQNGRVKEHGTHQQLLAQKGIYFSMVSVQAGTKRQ

SMILES	tested on	test	system	setting	how to read	endpoint	result
C=CC(=O)Nc1cc(Nc2nccc(-c3cn(C)c4ccccc34)n2)c(OCC(F)(F)F)nc1N(C)CCN(C)C	CYP1A2 human	inducer	hepatocytes lot LTG	10 µM	baseline: DMSO	relative enzyme activity	17.7
C=CC(=O)Nc1cccc(Cn2ncc3cnc(Nc4cnn(CCOC)c4)nc32)c1	GSK3A human	binding, KINOMEscan	–	100 nM	lower = stronger binding	percent of control	100%
CN1CCN(c2ccc3[nH]c(-c4ccc5[nH]c(-c6ccc(OCCCCNC(=O)c7ccc8c(c7)C7(OC8=O)c8ccc(N(C)C)cc8[Si](C)(C)c8cc(N(C)C)ccc87)cc6)nc5c4)nc3c2)CC1	ALB	binding, second site, fluorescence titration	PBS	–	–	Kd	> 1000 µM
CNc1nc(N)nc2c1ncn2[C@@H]1O[C@H](CO[P@](=O)(O)N[C@@H](C)C(=O)O)[C@@H](O)[C@@]1(C)F	ABCB1	bidirectional transport	LLC-PK1, human MDR1, transfected with	10 µM, together with: zosuquidar 1 µM	–	Papp A to B	5.43 ± 1.04 ×10⁻⁶ cm/s
Cc1ncsc1-c1ccc(C(C)NC(=O)C2CC(O)CN2C(=O)C(NC(=O)CCCCCCCCCCN2CCCC(Nc3ncc(Cl)c(Nc4ccccc4S(=O)(=O)C(C)C)n3)C2)C(C)(C)C)cc1 (stereo not drawn)	22Rv1	RNA-seq, measured: TTC30A mRNA	–	concentration not given	baseline: DMSO	log2 fold change	-1.62
C/C(N)=N/C(=N\S(=O)(=O)c1ccc(C(F)(F)F)cc1)N1C[C@H](c2ccccc2)C(c2ccc(Cl)cc2)=N1	ABCB1	–	MDCK-MDR1 monolayers	5 µM, 120 min, pH 7.4	–	Papp B-A	37.2 ×10⁻⁶ cm/s
CNC(=O)C1CCCN(C(=O)C2CC3CCC2N3C(=O)[C@@H]2C[C@@H](O)CN2C(=O)NCc2cccc(Cl)c2F)C1 (mixture of isomers)	Cytochrome P450 2B6 (CYP2B6, Homo sapiens, UniProt P20813)	preincubation with NADPH	human	0.206 µM	baseline: negative control	remaining activity	100% and 99.8% and 97.8%
CN1CCN(c2ccc3[nH]c(-c4ccc5[nH]c(-c6ccc(OCCCCNC(=O)c7ccc8c(c7)C(=O)OC87c8ccc(N(C)C)cc8C(C)(C)c8cc(N(C)C)ccc87)cc6)nc5c4)nc3c2)CC1	ALB	–	PBS	1 µM, 1 h, together with: 25 mg/mL albumin	–	fluorescence quantum yield	0.172 ± 0.003
COC1CN([C@H]2CC[C@H]([C@@]3(C)Oc4c(Cl)cc(C(=O)NCc5c(SC)cc(C)[nH]c5=O)c(C)c4O3)CC2)C1	–	RNA-seq, measured: STARD10 mouse homolog	mouse, HT-1376 xenograft, whole blood	dose not given	baseline: vehicle	log2 fold change	0.288
c1ccc(CN2CCCNCCNCCCNCC2)nc1	Pd(II)	potentiometry and UV spectrophotometry	aqueous 1.0 M KCl	25 °C, Pd2+ + L to PdL	–	log overall stability constant	42.6
CN1CCN(c2ccc3[nH]c(-c4ccc5[nH]c(-c6ccc(OCCCCNC(=O)c7ccc8c(c7)C(=O)OC87c8ccc(N(C)C)cc8[Si](C)(C)c8cc(N(C)C)ccc87)cc6)nc5c4)nc3c2)CC1	ALB	binding, fluorescence titration	PBS	1 h	–	Kd	25 ± 6 µM
CNc1nc(N)nc2c1ncn2[C@@H]1O[C@H](CO)[C@@H](O)[C@@]1(C)F	ABCB1	bidirectional transport	LLC-PK1, human MDR1, transfected with	10 µM, together with: zosuquidar 1 µM	–	Papp A to B	14.2 ± 0.6 ×10⁻⁶ cm/s

Excerpt of the above:
SMILES	tested on	test	system	setting	how to read	endpoint	result
C=CC(=O)Nc1cc(Nc2nccc(-c3cn(C)c4ccccc34)n2)c(OCC(F)(F)F)nc1N(C)CCN(C)C	CYP1A2 human	inducer	hepatocytes lot LTG	10 µM	baseline: DMSO	relative enzyme activity	17.7
C=CC(=O)Nc1cccc(Cn2ncc3cnc(Nc4cnn(CCOC)c4)nc32)c1	GSK3A human	binding, KINOMEscan	–	100 nM	lower = stronger binding	percent of control	100%
